Experimental data gathered from unrelated publications.
Lines come from different studies, so protocols differ. Several values in a cell are separate wells, animals, samples, runs or records. ± marks the error that the study gave.
HTR1F: 5-hydroxytryptamine receptor 1F (HTR1F, Homo sapiens, UniProt P30939)

Structure (SMILES)	target	assay	system	setting	EC50
COC(=O)CC(C)c1nn(C)c2nc(N)[nH]c(=O)c2c1=O (stereo not shown)	folP (Bacteria, UniProt P0AC13)	thermal stabilisation, lysate HiBiT CETSA		63 °C, tested 0.01 to 200 µM	> 200000 nM
COc1cc(C2C(NC(=O)c3ccc(NC(=O)OC(C)(C)C)cc3)(C(=O)O)C(c3ccc(OC(=O)c4cccs4)c(OC)c3)C2(NC(=O)c2ccc(NC(=O)OC(C)(C)C)cc2)C(=O)O)ccc1OC(=O)c1cccs1 (stereo not shown)	GLP1R (Homo sapiens, UniProt P43220, Y148A)	cAMP, agonist			155 nM
CC(C)Oc1cc(Cl)ccc1CNc1cc(-c2ccccc2)nc2ncnn12	GPR3 (Homo sapiens, UniProt P46089, I200W)	cAMP level, agonist, GloSensor		receptor I200W mutant	2140 nM and 2750 nM and 4270 nM and 2040 nM
O=C(CNC(=O)c1ccc(Cl)cc1)NO	Urease subunit alpha (ureC, Proteus mirabilis, UniProt P17086)				69900 ± 400 nM
CNc1ncnc2c1ncn2C1OC(CO)C(O)C1O (stereo not shown)	ADORA3 (Homo sapiens, UniProt P0DMS8, I253Q/V169F)	G protein activation, agonist			1100 nM
CN1CCN(C2=Nc3ccccc3Nc3ccccc32)CC1	HTR1F	G protein activation, agonist, BRET			195 nM
O=C(Cc1ccc(OCc2ccccc2)cc1)NC1(C(=O)O)CCN(C(=O)c2ccc(-c3cccc(Cl)c3)cc2)CC1	LPAR4 (Homo sapiens, UniProt Q99677)	cAMP, agonist, luciferase			> 10000 nM
COc1ccc(NC(=O)C2CC(C)CCC2C(C)C)cc1 (stereo not shown)	TRPM8 (Homo sapiens, UniProt Q7Z2W7)	ion current, agonist, automated patch clamp	HEK293T		4000 nM
CSCC[C@H](NC(=O)[C@H](CC(C)C)NC(=O)CNC(=O)[C@H](Cc1ccccc1)NC(=O)[C@H](Cc1ccccc1)NC(=O)[C@@H](N)CCC(N)=O)C(N)=O	TACR1 (Homo sapiens, UniProt P25103)	calcium mobilization, Fura-2	Flp-In-HEK293		0.398 nM
CNC(=O)C12CC1C(n1cnc3c(NC)nc(C#Cc4ccccc4Cl)nc31)C(O)C2O (stereo not shown)	SLC6A2 (Homo sapiens, UniProt P23975)	ligand displacement, radioligand			9600 nM
CC[C@H](C)[C@H](NC(=O)[C@@H]1CCCN1C(=O)CNC(=O)[C@H](Cc1ccccc1)NC(=O)[C@H](CC(N)=O)NC(=O)[C@H](CC(N)=O)NC(=O)[C@H](CO)NC(=O)[C@H](CO)NC(=O)[C@H](Cc1c[nH]cn1)NC(=O)[C@H](CCCNC(=N)N)NC(=O)[C@H](CC(C)C)NC(=O)[C@H](Cc1ccccc1)NC(=O)[C@H](CCC(=O)O)NC(=O)[C@H](C)NC(=O)[C@H](CC(C)C)NC(=O)[C@H](CCCNC(=N)N)NC(=O)[C@H](CCC(N)=O)NC(=O)[C@@H](NC(=O)[C@H](C)NC(=O)[C@@H]1CSSC[C@H](NC(=O)[C@H](CCCCN)NC(=O)CC[C@H](NC(=O)CCCCCCCCCCCCCCCCCCC(=O)O)C(=O)O)C(=O)N[C@@H](CC(N)=O)C(=O)N[C@@H]([C@@H](C)O)C(=O)N[C@@H](C)C(=O)N[C@@H]([C@@H](C)O)C(=O)N1)[C@@H](C)O)C(=O)N[C@@H](CC(C)C)C(=O)N1CCC[C@H]1C(=O)N1CCC[C@H]1C(=O)N[C@H](C(=O)N[C@@H](CC(N)=O)C(=O)N[C@H](C(=O)NCC(=O)N[C@@H](CO)C(=O)N[C@@H](CC(N)=O)C(=O)N[C@H](C(=O)N1CCC[C@H]1C(N)=O)[C@@H](C)O)C(C)C)[C@@H](C)O	Calcitonin-gene-related peptide receptor, CALCRL/RAMP1 (Homo sapiens, UniProt O60894+Q16602)	cAMP, agonist, TR-FRET			70.3 nM
CCCCCCCC/C=C\CCCCCCCC(=O)NCCO	Trpv1 (Mus musculus, UniProt Q704Y3, S511A)	ion current, agonist, whole-cell patch clamp		24 °C, S511A, +80 mV	370 ± 130 nM
O=C(NC[C@@H](Cc1ccc(F)cc1)N1CCC(O)(C(F)(F)F)CC1)C1(c2ccc(Cl)cc2)CCCC1	TRPA1 (Homo sapiens, UniProt O75762, T874N)				17000 nM
CC(CCC(=O)NCCS(=O)(=O)O)C1CCC2C3CCC4CC(OS(=O)(=O)O)CCC4(C)C3CCC12C (stereo not shown)	GPR39 (Homo sapiens, UniProt O43194)	calcium flux, agonist, FLIPR		with: Zn2+ 4 µM	9600 ± 6300 nM
CCOC(=O)C12CC1C(n1cnc3c(NC)nc(C#Cc4ccc(F)s4)nc31)C(O)C2O (stereo not shown)	SLC6A3 (Homo sapiens, UniProt Q01959)	ligand displacement, radioligand			120 nM
Cn1c(=O)n(C2CCC(=O)NC2=O)c2ccc(C3CCN(CC(=O)Nc4cccc(CS(=O)(=O)N5CC[C@H](Nc6cccc(-c7sc(C(=O)O)c(OCC(=O)O)c7Cl)c6)CC5(C)C)c4)CC3)cc21 (stereo partly shown)	PTPN9 (Homo sapiens, UniProt P43378)	phosphatase activity		with: DiFMUP substrate	> 10000 nM
CCCCCCCCCCCCCCCC(=O)OCC(CSC[C@H](N)C(=O)N[C@@H](CO)C(=O)N[C@@H](CCCCN)C(=O)N[C@@H](CCCCN)C(=O)N[C@@H](CCCCN)C(=O)N[C@@H](CCCCN)C(=O)O)OC(=O)CCCCCCCCCCCCCCC (stereo partly shown)	TLR2/TLR6 (Homo sapiens, UniProt O60603+Q9Y2C9)	reporter gene, agonist	HEK-Blue hTLR2/6 cells		0.19 ± 0.028 nM
CSc1ccc2c(c1)C(N1CCN(C)CC1)Cc1ccccc1S2 (stereo not shown)	HTR1F	G protein activation, agonist, BRET			1140 nM
COc1ccc(C(=O)c2c(C(=O)NCCCN(C)C)oc3ccc(Cl)cc3c2=O)cc1OC	GHSR (Homo sapiens, UniProt Q92847)	beta-arrestin-2 recruitment, NanoBiT	HEK293T		141 nM

Some of these lines once more:
Structure (SMILES)	target	assay	system	setting	EC50
CSCC[C@H](NC(=O)[C@H](CC(C)C)NC(=O)CNC(=O)[C@H](Cc1ccccc1)NC(=O)[C@H](Cc1ccccc1)NC(=O)[C@@H](N)CCC(N)=O)C(N)=O	TACR1 (Homo sapiens, UniProt P25103)	calcium mobilization, Fura-2	Flp-In-HEK293		0.398 nM
CNC(=O)C12CC1C(n1cnc3c(NC)nc(C#Cc4ccccc4Cl)nc31)C(O)C2O (stereo not shown)	SLC6A2 (Homo sapiens, UniProt P23975)	ligand displacement, radioligand			9600 nM
CC[C@H](C)[C@H](NC(=O)[C@@H]1CCCN1C(=O)CNC(=O)[C@H](Cc1ccccc1)NC(=O)[C@H](CC(N)=O)NC(=O)[C@H](CC(N)=O)NC(=O)[C@H](CO)NC(=O)[C@H](CO)NC(=O)[C@H](Cc1c[nH]cn1)NC(=O)[C@H](CCCNC(=N)N)NC(=O)[C@H](CC(C)C)NC(=O)[C@H](Cc1ccccc1)NC(=O)[C@H](CCC(=O)O)NC(=O)[C@H](C)NC(=O)[C@H](CC(C)C)NC(=O)[C@H](CCCNC(=N)N)NC(=O)[C@H](CCC(N)=O)NC(=O)[C@@H](NC(=O)[C@H](C)NC(=O)[C@@H]1CSSC[C@H](NC(=O)[C@H](CCCCN)NC(=O)CC[C@H](NC(=O)CCCCCCCCCCCCCCCCCCC(=O)O)C(=O)O)C(=O)N[C@@H](CC(N)=O)C(=O)N[C@@H]([C@@H](C)O)C(=O)N[C@@H](C)C(=O)N[C@@H]([C@@H](C)O)C(=O)N1)[C@@H](C)O)C(=O)N[C@@H](CC(C)C)C(=O)N1CCC[C@H]1C(=O)N1CCC[C@H]1C(=O)N[C@H](C(=O)N[C@@H](CC(N)=O)C(=O)N[C@H](C(=O)NCC(=O)N[C@@H](CO)C(=O)N[C@@H](CC(N)=O)C(=O)N[C@H](C(=O)N1CCC[C@H]1C(N)=O)[C@@H](C)O)C(C)C)[C@@H](C)O	Calcitonin-gene-related peptide receptor, CALCRL/RAMP1 (Homo sapiens, UniProt O60894+Q16602)	cAMP, agonist, TR-FRET			70.3 nM
